Measurements pooled from the literature.
A part holds a random share of what one study measured.

Study 1
Target: Centromere-binding protein 1, full length, N-terminal tag (CBF1, Saccharomyces cerevisiae, UniProt P17106, residues 1-351)
Chain of UniProt P17106 (whole entry, looked up): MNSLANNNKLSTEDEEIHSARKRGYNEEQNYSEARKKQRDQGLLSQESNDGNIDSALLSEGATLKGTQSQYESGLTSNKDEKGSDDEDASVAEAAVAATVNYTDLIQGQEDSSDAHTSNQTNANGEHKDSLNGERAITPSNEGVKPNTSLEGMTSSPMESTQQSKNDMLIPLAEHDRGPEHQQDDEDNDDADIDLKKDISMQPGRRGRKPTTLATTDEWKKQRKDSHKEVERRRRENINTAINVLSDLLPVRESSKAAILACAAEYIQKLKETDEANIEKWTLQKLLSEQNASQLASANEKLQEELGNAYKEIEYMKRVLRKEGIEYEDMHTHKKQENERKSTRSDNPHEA
Method: protein-binding microarray
Form: double-stranded DNA, one strand shown
Sample: in vitro
Concentration: 0.8 µM
Setting: whole 60-bp probe, no competitor
Reading: higher = stronger binding
`CTACTGCCACCATACCACGTGTGTCCCTCGCAATTCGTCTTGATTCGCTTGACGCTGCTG` has a fluorescence intensity of 3020 a.u.
With `GAACATTTAATGCGTGACGTTGAATCGAGAAAATAGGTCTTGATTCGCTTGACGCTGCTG` the fluorescence intensity was 1270 a.u.
The fluorescence intensity of `CTAAAAACATCCGTACATCAGAAGGATTATATGTTCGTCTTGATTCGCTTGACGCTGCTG` is reported as 544 a.u.
`CTAAATAGGCGCAATCACACTTAAACGTATACGTTCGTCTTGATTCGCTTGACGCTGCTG` gave a fluorescence intensity of 495 a.u.
`CTAGAACAAATACATCACGAAGACAGAAATACGTTCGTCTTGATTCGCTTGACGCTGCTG` has a fluorescence intensity of 639 a.u.
With `GAAAACTAATGTTTAGTGATGATGATGAAATAGTAGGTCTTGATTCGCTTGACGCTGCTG` the fluorescence intensity was 581 a.u.
The fluorescence intensity of `CTAGGGTTGTTTGATCACATTATTTTAATTTTTTTCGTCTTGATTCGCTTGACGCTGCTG` is reported as 992 a.u.
`CTATAACGTTGCTCTTGCACGTGTATTTCGCTGTTCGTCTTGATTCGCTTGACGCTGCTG` gave a fluorescence intensity of 3580 a.u.
For `GAAGATTCAAATGGTGACGTTAAAAACATGGAGTAGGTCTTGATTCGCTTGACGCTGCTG`, the fluorescence intensity was 576 a.u.
`GAATTGCGGTTACTACTGACCACGAAGCAATGCTAGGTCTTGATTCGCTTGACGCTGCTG` gave a fluorescence intensity of 521 a.u.
`CTACGCTTATCGCTTATCGTGCGCCAAAAACCGTTCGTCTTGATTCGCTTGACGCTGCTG` has a fluorescence intensity of 521 a.u.
The fluorescence intensity of `CTAGATAATCTACATCATGTGGTACGTTAACGATTCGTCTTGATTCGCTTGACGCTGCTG` is reported as 1410 a.u.
`GAATATTAACAATGACACGTTATTTTATATGTATAGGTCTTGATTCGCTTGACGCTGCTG` has a fluorescence intensity of 668 a.u.
`GAAATTTTGATTACCATCAGCAAATGGATTTTCTAGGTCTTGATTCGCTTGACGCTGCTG` gave a fluorescence intensity of 529 a.u.
`GAACATAAGCGCTAAGGCGTGATAACTCAACTTTAGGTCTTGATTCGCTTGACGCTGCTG` has a fluorescence intensity of 588 a.u.
With `GAAGCTGATCCGGGTGACACACTACTAATCATTTAGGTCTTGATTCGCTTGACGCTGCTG` the fluorescence intensity was 526 a.u.
For `GAAAGATATTTTTTCTTCGTGATTTTCTAGTCCTAGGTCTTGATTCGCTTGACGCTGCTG`, the fluorescence intensity was 525 a.u.
With `CTAATCACAAAGAATCACGAGGAAAAGATTGATTTCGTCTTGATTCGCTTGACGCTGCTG` the fluorescence intensity was 1170 a.u.
`CTATTCAGGGCTGCTCACAACGTGATATATTTGTTCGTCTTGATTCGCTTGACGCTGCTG` has a fluorescence intensity of 2000 a.u.

Study 2
Organism: Saccharomyces cerevisiae
Read-out: binding
Method: competitive growth deep sequencing
Form: peptide
Strain: cyclin D3-Cln2 fusion strain
Setting: peptide tiling library
Reading: direction not given
`MNQELLSVGSKRRRTG` gave an enrichment score of -0.36.
For `TSPGPVLLHPSPSTTQ`, the enrichment score was 0.909.
The enrichment score of `LKGRRLVFDN` is reported as 0.327.
For `RVSGLLSWTLSRVLWL`, the enrichment score was -0.85.
The enrichment score of `VLLKRLQDVVSERANH` is reported as 3.11.
`TRRRLFVENDSP` has an enrichment score of -0.967.
With `ISRLFPPRTPGWHQLQ` the enrichment score was -2.81.
`ALLRRLQDVANDRGSH` gave an enrichment score of 3.26.
With `RDLFDCDFGDLTPLDF` the enrichment score was 1.83.
With `AGSAKRRLFGEDPPKE` the enrichment score was -0.57.
The enrichment score of `SPREGHMMDALYAQVK` is reported as 0.372.
With `CFRCLLFSFSGRSGVE` the enrichment score was -1.97.
With `IQKKLRFEDTLEFVGF` the enrichment score was -1.44.
With `KPITLDTTDFQESFVT` the enrichment score was 0.898.
`EPKTLFLGAGDFQF` has an enrichment score of 1.72.
`QDYERRLLRQIVIQNE` gave an enrichment score of -0.862.
`PLRKAKRARLCSSSSS` has an enrichment score of 1.77.
The enrichment score of `KDDDKAWEYEERDRRS` is reported as 0.814.
`KRRLDLETDHQY` has an enrichment score of -1.05.
`ESSTVSEEDYFSSHRD` has an enrichment score of 1.21.
`SDSTVTKLDFDLEP` gave an enrichment score of 1.09.
For `RSLKLDGLLEEN`, the enrichment score was -0.472.

Study 3
Target: Ras GTPase-activating protein-binding protein 1, full length (G3BP1, Homo sapiens, UniProt Q13283)
Chain of UniProt Q13283 (whole entry, looked up): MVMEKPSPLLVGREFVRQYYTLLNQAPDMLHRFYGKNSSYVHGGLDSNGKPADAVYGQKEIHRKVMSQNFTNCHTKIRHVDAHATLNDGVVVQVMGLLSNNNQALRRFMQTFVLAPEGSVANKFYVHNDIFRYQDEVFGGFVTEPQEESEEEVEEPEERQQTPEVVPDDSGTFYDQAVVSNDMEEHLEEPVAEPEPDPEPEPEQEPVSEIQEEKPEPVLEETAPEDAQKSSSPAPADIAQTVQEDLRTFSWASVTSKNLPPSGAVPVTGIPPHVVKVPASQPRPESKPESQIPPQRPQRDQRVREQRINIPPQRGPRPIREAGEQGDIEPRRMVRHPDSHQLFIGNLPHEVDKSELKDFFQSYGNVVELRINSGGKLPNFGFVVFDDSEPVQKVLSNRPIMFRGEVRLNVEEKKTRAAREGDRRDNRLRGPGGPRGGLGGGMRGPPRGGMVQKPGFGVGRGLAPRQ
Method: RNA Bind-n-Seq
Form: RNA
Sample: in vitro
Concentration: 200 nM
Setting: whole 134-nt RNA, ends assumed
Added: 150 mM LiCl
Relative to: input library
Reading: higher = stronger binding
Each molecule: 7-deaza-guanosine replaces G
The log2 enrichment of `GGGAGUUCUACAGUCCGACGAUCAGUCCUGUGCUACACAUCGUAUGUACCGAAUCGGGAAAAAGGAAAAAGGAAAAAGGGAAAGUAUUAUGUUACGCCGUUCGGAUCUGCACUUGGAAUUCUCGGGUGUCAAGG` is reported as -1.25.
`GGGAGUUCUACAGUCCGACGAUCGCAGGAAGUAAAAACAAAUGGAAAUGCUUCGUAUAGUGGCAGGGGUGGGGGUUGCUAAGGAAAGGGUGGGAUGGGAGUGGGUAAAGAGUUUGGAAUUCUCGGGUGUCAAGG` gave a log2 enrichment of 0.125.
`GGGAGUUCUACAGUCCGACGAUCUGAAAAGAACUGCUCUCCAUGGAGAGAGUAACUCUGUCCUUAUUAUCGGACCCCGAGGAUCAGGAAAAACUAUGGUAAAAGCUGUUGAUUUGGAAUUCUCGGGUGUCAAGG` has a log2 enrichment of -2.87.
The log2 enrichment of `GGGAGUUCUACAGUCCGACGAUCGUCCUGUGCUACACAUCGUAUGUACCGAAUCGGGGAGGGGAAAAAAAGGGGUUUGGGGAAAGUAUUAUGUUACGCCGUUCGGAUCUGCACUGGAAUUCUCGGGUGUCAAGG` is reported as -0.493.
The log2 enrichment of `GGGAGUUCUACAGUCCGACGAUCUCCUGUGCUACACAUCGUAUGUACCGAAUCGGGUUUUUGGGGUUUUUGGGUUUUUGGGGAAAGUAUUAUGUUACGCCGUUCGGAUCUGCAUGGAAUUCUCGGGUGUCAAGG` is reported as -0.00856.
For `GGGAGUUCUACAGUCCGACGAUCUGGGAGGUGGAUCUUGUUUAUUUUUUUAGCUCAUUUCCAGGGGUGGGAAUUUUUUUUUAAUAUGUGUCAUGAAUAAAGUUGUUUUUGAAAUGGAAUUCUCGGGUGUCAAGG`, the log2 enrichment was 0.293.
With `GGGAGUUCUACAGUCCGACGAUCUGCCAAAGUAUGGCAAGAAAUUGCUCCUGGAAAUACUGAUGCCACCCCAGUAACUCAUGGAACUGAAAGCUCUUGGCAUGAAAUAGCAGCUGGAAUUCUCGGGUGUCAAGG` the log2 enrichment was 1.02.
`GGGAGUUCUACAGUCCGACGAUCUCAAGUCCUGUGCUACACAUCGUAUGUACCGAAUCGGUUUGGUUUGGGUUUGGGGAAAGUAUUAUGUUACGCCGUUCGGAUCUGCACUUCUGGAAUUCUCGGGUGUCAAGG` has a log2 enrichment of -0.927.

Study 4
Target: Interferon regulatory factor 5, full length, phosphomimetic (IRF5, Homo sapiens, UniProt Q13568-2, residues 1-514, S451D/S453D/S456D/S462D)
Method: protein-binding microarray
Form: double-stranded DNA, one strand shown
Sample: in vitro
Concentration: 940 nM top
Setting: 60-bp whole probe
Added: salmon DNA 0.4 mg/ml
Relative to: random background probes
Reading: higher = stronger binding
All sequences stand within: GCCTAGCAC … GTCTTGATTCGCTTGACGCTGCTG
Under “fitted relative affinity”, `GTCCCTATCTCCTCACAGACCGTGCTA` is recorded as 1.16 z-score.
For `CCTCAGCTCCCTTTCTCTCTGTGCTAG`, “fitted relative affinity” read 0.795 z-score.
`TCATCTCTGCTTGTGTCACTGTGCTAG` — result for “fitted relative affinity”: 0.808 z-score.
For `GACGGAATCGGGTTTCGGGACGTGCTA`, “fitted relative affinity” read 2.48 z-score.
`TTAGGTTTCGCGTTTCGGTTAGTGCTA` — result for “fitted relative affinity”: 6.11 z-score.
`TTAGGTTTCCTACTACTTTAGTGCTAG` — result for “fitted relative affinity”: 1.03 z-score.
`GACGATCACAGTTTCGAGACGTGCTAG`: “fitted relative affinity” 3.35 z-score.
`TTAGGTGTCGGTATCGGTTAGTGCTAG` — result for “fitted relative affinity”: 4.38 z-score.
`TTCACTTTCCAAAGCGTGAGGTGCTAG` — result for “fitted relative affinity”: -0.123 z-score.
`TCATATGTAATCATTCACACTGTGCTA` — result for “fitted relative affinity”: 0.368 z-score.
Under “fitted relative affinity”, `ATAGGACTGGACTTTCGGTTAGTGCTA` is recorded as 2.72 z-score.
`GACGGACAGGGTCTCGGGACGTGCTAG`: “fitted relative affinity” -0.587 z-score.
Under “fitted relative affinity”, `AGAGCCTGGGGATGCAGAGAGTGCTAG` is recorded as -0.345 z-score.
`GACGGACTGGGTATCGGTACGTGCTAG`: “fitted relative affinity” 3.18 z-score.
`GACGTTATCGACACTGGGGACGTGCTA` — result for “fitted relative affinity”: 0.348 z-score.
`GAGGGTCTCGGTATCGGGACGTGCTAG`: “fitted relative affinity” 3.4 z-score.
Under “fitted relative affinity”, `TTAGGACTGCTTAACCTTTAGTGCTAG` is recorded as -0.205 z-score.
Under “fitted relative affinity”, `GTGAACCGGTCTCTCAGACCGTGCTAG` is recorded as -0.615 z-score.
`GACGGACTGGACACTGGGGACGTGCTA`: “fitted relative affinity” -0.542 z-score.

Repeated from above (study 2):
For `TSPGPVLLHPSPSTTQ`, the enrichment score was 0.909.
The enrichment score of `LKGRRLVFDN` is reported as 0.327.
For `RVSGLLSWTLSRVLWL`, the enrichment score was -0.85.
The enrichment score of `VLLKRLQDVVSERANH` is reported as 3.11.
`TRRRLFVENDSP` has an enrichment score of -0.967.
With `ISRLFPPRTPGWHQLQ` the enrichment score was -2.81.
`ALLRRLQDVANDRGSH` gave an enrichment score of 3.26.
